Results pooled from the literature.
Every numbered part comes from another study and shows a few of its results, in no order.

Block 1 — technique: universal PBM; form: double-stranded DNA, one strand shown; sample: in vitro; tested at: not given; reading: higher = stronger binding
Target: Sal-like protein 4, full length isoform B (SALL4, Homo sapiens, UniProt Q9UJQ4-2, residues 1-616)
Notes: 8-mer, flanks averaged, mean of replicates
With `GCCTCGTA` the E-score was -0.0312.
`GACAGTTA` gave an E-score of 0.108.
For `AACGAAGG`, the E-score was -0.148.
`CTATGTTC` has an E-score of 0.101.

Block 2 — technique: protein binding microarray; form: double-stranded DNA, one strand shown; sample: in vitro; tested at: not given; relative to: not given; reading: higher = stronger binding
Target: Histone acetyltransferase KAT6A, winged helix 2, GST fusion (KAT6A, Homo sapiens, UniProt Q92794, residues 85-181)
Notes: 8-mer, flanks averaged, mean of 2 arrays, mostly near background
Residues (chain): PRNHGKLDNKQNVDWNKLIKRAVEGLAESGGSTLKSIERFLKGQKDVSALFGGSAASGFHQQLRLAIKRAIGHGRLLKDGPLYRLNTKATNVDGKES
For `AAGCAAAT`, the E-score was 0.0734.
`GAGTTTCA` gave an E-score of 0.0744.
The E-score of `AGTCGTAC` is reported as -0.279.
The E-score of `AGATTCCT` is reported as -0.0244.

Further values, each from its own experiment
IRF5 K96S/S451D/S453D/S456D/S462D full length, phosphomimetic: Interferon regulatory factor 5, full length, phosphomimetic (IRF5, Homo sapiens, UniProt Q13568-2, residues 1-514, K96S/S451D/S453D/S456D/S462D)
`GCCTAGCACTTAGATATCTGTCTCGATTAGTGCTAGGTCTTGATTCGCTTGACGCTGCTG` gave a log fluorescence of 1.3 z-score (IRF5 K96S/S451D/S453D/S456D/S462D full length, phosphomimetic; protein-binding microarray; double-stranded DNA, one strand shown, in vitro; 250 nM, 60-bp whole probe, together with: salmon DNA 0.4 mg/ml; relative to: random background probes, higher = stronger binding).
For `PhoQ, residues 284 288 289 292 302 303 NLGVHL`, the fold induction was 2.4 (PhoP, residues 12 14 15 18 19 LFHKL (Escherichia coli, UniProt P23836); Sort-seq, measured: YFP reporter; E. coli; PhoQ-PhoP variant library, together with: 10 µM Mg2+; relative to: high Mg2+ state, higher = stronger signaling).
The log fluorescence of `GCCTAGCACTTAGGTTTCCTTTTCCTTTAGTGCTAGGTCTTGATTCGCTTGACGCTGCTG` is reported as 1.82 z-score (IRF5 K96S/S451D/S453D/S456D/S462D full length, phosphomimetic; protein-binding microarray; double-stranded DNA, one strand shown, in vitro; 250 nM, 60-bp whole probe, together with: salmon DNA 0.4 mg/ml; relative to: random background probes, higher = stronger binding).

Excerpt of the above (further values, each from its own experiment):
For `PhoQ, residues 284 288 289 292 302 303 NLGVHL`, the fold induction was 2.4 (PhoP, residues 12 14 15 18 19 LFHKL (Escherichia coli, UniProt P23836); Sort-seq, measured: YFP reporter; E. coli; PhoQ-PhoP variant library, together with: 10 µM Mg2+; relative to: high Mg2+ state, higher = stronger signaling).
